Published values from different studies.
Every numbered part comes from another study and shows a few of its results, in no order. Changes are numbered by the printed parent chain.

Series 1 — technique: DHFR PCA, deep sequencing; sample: yeast; together with: (+)-ABA 710 µM; reference: wild-type fitted maximum; direction: higher = stronger binding
Target: ABI1, truncated, D143A, DHFR fusion (Arabidopsis thaliana)
Notes: methotrexate growth selection, single substitutions
Starting sequence: PYL1, truncated, DHFR fusion (Arabidopsis thaliana); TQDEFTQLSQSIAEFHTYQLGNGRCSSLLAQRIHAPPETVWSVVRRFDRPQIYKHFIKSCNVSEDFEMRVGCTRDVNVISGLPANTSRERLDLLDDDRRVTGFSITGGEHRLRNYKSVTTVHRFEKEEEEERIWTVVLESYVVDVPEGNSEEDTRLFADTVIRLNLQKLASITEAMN; partner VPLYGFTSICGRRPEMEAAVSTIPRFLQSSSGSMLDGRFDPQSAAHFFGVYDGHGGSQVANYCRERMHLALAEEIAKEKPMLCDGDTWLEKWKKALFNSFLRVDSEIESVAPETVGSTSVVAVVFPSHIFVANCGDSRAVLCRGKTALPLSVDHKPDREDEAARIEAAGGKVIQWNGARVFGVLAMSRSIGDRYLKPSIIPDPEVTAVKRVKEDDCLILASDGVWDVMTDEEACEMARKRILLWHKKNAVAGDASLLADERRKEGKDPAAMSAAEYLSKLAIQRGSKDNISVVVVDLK
Change	relative binding score
R88S	105%
V40Y	-10.6%
S42N	113%
D97W	96.5%
T39K	103%
L82W	82.5%
S42L	94%
F124C	110%
D144M	81.5%
T101Y	99.6%
T120D	2.93%
G102A	102%
S80V	35%
N177R	82.3%
Y141N	-7.17%
F103Y	108%
L166S	1.4%

Series 2 — technique: RNA Bind-n-Seq; form: RNA; sample: in vitro; tested at: 365 nM; reference: no-protein control; direction: higher = stronger binding
Target: RNA binding protein fox-1 homolog 2, RRM domain, GST-SBP tag (RBFOX2, Homo sapiens, UniProt O43251-10, residues 100-194)
Notes: natural RNA segment, single round, ends assumed
All sequences stand within: GGGAGUUCUACAGUCCGACGAUC … UGGAAUUCUCGGGUGCCAA
Construct (chain): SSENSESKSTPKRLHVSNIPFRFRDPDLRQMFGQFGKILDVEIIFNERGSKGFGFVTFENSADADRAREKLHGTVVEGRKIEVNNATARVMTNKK
Strand	RBNS enrichment (R)
CUUAACAGAUGCAGUCAGCAGUUUCUGGGCACUUCUCUCAGUAGGUGCCUCAUGCUGACUUCUCCAGUAGGGUUUCAGGACAAACUACCAAGGAAUUGCCUCAGCCUCCU	0.332
AGGGCCACAUGGGAGGCUCACCCCCUUCUCCAUCCACAUGGGAGCCGGGUCUGCCUCUUCUGGGAGGGCAGCAGGGCUACCCUGAGCUGAGGCAGCAGUGUGAGGCCAGG	0.379
AGAUACCUGCCAGCACUUCUGCAAGCUGAAAUUUACAGAAGCAAAUUCACCAGAAGGGAAACAUCUCAGGCCAACAUAGGCAAAUGAAAAGGGCUAUUAAAAUAUUUUUA	0.464
ACCAGCCUGCAGGUCUCUGAGCUAUAGCUUGACUUGGGAGUCUUGAUUCCCACAGAAAACGUCCUAAGACUUCUAGUCGUCAAGAAGACCUGAAGCAUCCUUGACCUUCA	0.377
UCUCCUAUUAAAUAAAAUUAUUUUAAGUUUUAGUGUCAAAAGUGAGAUGCUGAGAGUAGGUGAUAAUGUAUAUUUUACAGAGUGGGGGUUGGCAGGAUGGUGACAUUGAA	0.664
UAAGUAUGAUGCAAAAUGAGAGGUAGGAUGUGUAGCAGGAUUCCAAAUUUUAGCUUAAUUGUCUUUGACAAUGGACUAUUUGGAGAAAUGAAUGAAUAGGUUGUGGCUGU	2.6
CCCAGUCAGCUUUGCCAUACUGACGUCAAUCAUUUGAGAGAAAUUAUUCAGAUUUUAUUUUUGUAUCUGUGGUAACAAAACAUUAACCAAAAGAUUUUCUGUCCAGAAGC	0.517
UCCCUAAAUGUGGCCACCAGAGAGUUCCAGUGGGCAGAUGUCUGUGGCUGCCCUUCUCAUUUAAGGACAUGAGUUCACUGGAGUAUUACUCAAAAAGUCUGUGGUUCAUU	0.308
AGAUUUGCCCAUCAGGGGAAAAGAAAUGGGGUUAUAUCCAUUAGGAAAAUCCCAUUUUAUAGAUAGAGGUGCAAUCACAUAAAAAUGUGGCCAGGCAGGAUUAAAGGUAU	0.662
AGUCUGGACCCUUUUGUCACAGUACAGCUCUUGUCUUUACCAACUGCCUGAAGAGGCCAUAUGCUGGCAUUUUGCACAACUUUUUGGUUGUUUAGAUCCUACAGAUGACC	0.348
AGUAGAGAUUUCAUAGCUAUUUAGAGAUAUUUUCCAUUUUAAGAAAACCCGACAACAUUUCUGCCAGGUUUGUUAGGAGGCCACAUGAUACUUAUUCAAAAAAAUCCUAG	0.641
UGAGUUAGGAAAAUUACAUUCCUGGUUCUGUAUUGAGGAGAAGGAUGUAUAAAGCAACAUGAAACAUUAGCCCUCCUUUUAUUUUAAAGACUAAUGUUAAUUGUUCUUAA	0.363

Series 3 — technique: protein-binding microarray; form: double-stranded DNA, one strand shown; sample: in vitro; tested at: 250 nM; notes: 60-bp whole probe; together with: salmon DNA 0.4 mg/ml; reference: random background probes; direction: higher = stronger binding; all sequences stand within: GCCTAGCAC … GTCTTGATTCGCTTGACGCTGCTG
Target: Interferon regulatory factor 5, full length, phosphomimetic (IRF5, Homo sapiens, UniProt Q13568-2, residues 1-514, K96S/S451D/S453D/S456D/S462D)
Strand	log fluorescence [z-score]
TCAGTTTTTGCTTTCTTACTGTGCTAG	2.15
TTAGGACTGCCTTTCCTTTAGTGCTAG	-0.0374
TATCAGTTTAATATCTAAGAGTGCTAG	6.86
ATGTATATATGTGTATATATGTGCTAG	0.24
TTAGATATCAGACTGGATTAGTGCTAG	0.225
TCTCTTTCCAACTCTGTTTTCGTGCTA	1.92
CCCGATATGCGGTAAGGGCGCGTGCTA	0.0874
GACGGTATCAGTTTCGGGACGTGCTAG	7.14
TTAGGTATCGGTATCGCTTAGTGCTAG	8.24
AAGTTTCTCCTTTCGGAATAGTGCTAG	7.35
GACGGTTTCGGGTTTCGGTACGTGCTA	9.03
TCACTTTTCAGTCCCCTACTGTGCTAG	1.11
TCATAAATCTTTGTTGGAACTGTGCTA	0.467
ACCATTGTGGTTTTCATTATGTGCTAG	1.11
TTAGATTTCAGTCGCGATTAGTGCTAG	1.67
TCAGATTTTGGTCTTTCACTGTGCTAG	1.99
GACGGACTGGGGACTGGGAACGTGCTA	-0.335
CACTCTCTGGGCTGTGGGTTTGTGCTA	-0.0966
GACGGACTAGACTTTCGGGACGTGCTA	4.17
GACGATATCAGTCTCGGGACGTGCTAG	1
TTAGGTTTCGGTTTCGGTGAGTGCTAG	11.5

Series 4 — target: BATF2, bZIP domain (human); technique: DHFR protein complementation; sample: yeast; reference: wild-type JUN-FOS pair; direction: higher = stronger binding
Notes: single substitutions, most at no-binding floor
Starting sequence: JUN, bZIP domain (human); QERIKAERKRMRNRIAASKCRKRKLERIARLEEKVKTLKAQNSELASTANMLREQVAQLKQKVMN; partner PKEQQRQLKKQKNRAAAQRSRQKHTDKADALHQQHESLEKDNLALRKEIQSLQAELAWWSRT
Change	binding fitness
L52G	-1.16 natural log
Q58P	-1.01 natural log
I28N	-0.73 natural log
Q41L	-0.341 natural log
A46E	-0.173 natural log
E33A	-0.383 natural log
K36S	-0.286 natural log
A40L	-0.405 natural log
V56C	-0.735 natural log
Q41I	-0.174 natural log
L31H	-0.955 natural log
E44V	-0.394 natural log
E33S	-0.493 natural log
T48I	-0.303 natural log
K36M	-0.165 natural log
A40D	-0.302 natural log
E33P	-1.29 natural log
E32T	-0.532 natural log
R53I	-1.36 natural log

Series 5 — target: CCNA1, cyclin fold, Cln2 fusion (human); technique: yeast growth competition, sequencing; sample: yeast; notes: weak parent motif; reference: not given; direction: higher = stronger binding
Starting sequence: PKN2 docking peptide (human); VSAVQKLDFSDTM
Change	normalised enrichment score
K6R	0.115
L7Y	0.0806
L7I	-0.0571
F9M	0.295
M13Q	-0.0902
M13L	0.188
D8W	0.371
S2R	0.359
L7Q	0.0601
A3W	0.178
V4N	0.119
Q5R	0.815
T12D	0.026
T12P	0.536
L7V	0.151
V4C	-0.0817
F9R	0.674
L7D	0.259
S2I	0.238
D11N	0.334
A3H	0.406
K6P	0.203
K6H	0.109
D11Q	-0.00721
D8T	-0.0394

Further values, each from its own experiment
Substance	target	assay	test system	setting	scale	endpoint	value
PhoQ, residues 284 288 289 292 302 303 QWQEDG	PhoP, residues 12 14 15 18 19 DLLYY (Escherichia coli, UniProt P23836)	Sort-seq, item: YFP reporter	E. coli	PhoQ-PhoP variant library, together with: 10 µM Mg2+	reference: high Mg2+ state, higher = stronger signaling	fold induction	2.34
